Results of several laboratories.
Numbered parts are unrelated; each lists some results of a single study. Changes are numbered by the printed parent chain.

Study 1
Target: Histone acetyltransferase KAT6A, winged helix 1, GST fusion (KAT6A, Homo sapiens, UniProt Q92794, residues 1-85)
Method: protein binding microarray
Form: double-stranded DNA, one strand shown
Sample: in vitro
Tested at: not given
Setting: 8-mer, flanks averaged, mean of 2 arrays, mostly near background
Reference: not given
Reading: higher = stronger binding
Construct (chain): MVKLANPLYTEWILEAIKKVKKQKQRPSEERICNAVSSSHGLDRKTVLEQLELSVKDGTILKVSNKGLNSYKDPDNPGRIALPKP
Strand | E-score
AAGGACAG | -0.0471
AGGTTGAT | -0.132
GGGTGTTA | 0.0347
AAAAGACG | -0.0307
GGGCTTGA | -0.176
CCCCCTTC | -0.142
GACGGTGA | 0.148
ATTCCGCA | -0.0568
CCTCATAA | -0.195
AGCTCATG | -0.0562
AACCAACC | -0.0839
ATAATAGA | -0.169
AAAGGAGA | -0.0949
CCCCTGCA | -0.151
GGCAGTAC | 0.136
GTTACACA | -0.0349
ACTCTAGG | -0.103
CGTAACAA | 0.0681
CCACGAAA | -0.174
CGGGGCAG | 0.271
AAATTCAT | -0.165
ACCGACGC | 0.418
AGTAGAAT | -0.184
AACTACCG | 0.105
CTACGTTC | -0.0366

Study 2
Target: Interferon regulatory factor 5, full length, phosphomimetic (IRF5, Homo sapiens, UniProt Q13568-2, residues 1-514, K96S/S451D/S453D/S456D/S462D)
Method: protein-binding microarray
Form: double-stranded DNA, one strand shown
Sample: in vitro
Tested at: 250 nM
Setting: 60-bp whole probe
Together with: salmon DNA 0.4 mg/ml
Reference: random background probes
Reading: higher = stronger binding
Shared flanks, not repeated: GCCTAGCAC … GTCTTGATTCGCTTGACGCTGCTG
Strand | log fluorescence
CGCCCTCTCAACCATCCTGGGGTGCTA | -0.393 z-score
GACGGTATCGGCTTCGGGACGTGCTAG | 1.99 z-score
GACGGTTTCGGTCTCGGAACGTGCTAG | 9.07 z-score
TTAGGTTTTGGGTATCGGTTAGTGCTA | 4.53 z-score
GTCGATATCAGACTGGAGACGTGCTAG | 1.14 z-score
GACGATTTCATACTGGAGACGTGCTAG | 0.692 z-score
TCACCTTCTACTCTCCTACTGTGCTAG | 0.465 z-score
TCACCTGAATGAAAACATACTGTGCTA | 0.5 z-score
GACGGTTTCGGGTATCGGGCCGTGCTA | 7.75 z-score
TCATCTTTCATTGCTGCACTGTGCTAG | 2 z-score
GACGAACTGAGTTGCGAGACGTGCTAG | -0.241 z-score
GACGAACTGGACTTTCGGGACGTGCTA | 4.7 z-score
TTAGGACTGCTTCTCCTTTTGTGCTAG | -0.313 z-score
AAAAATTAGTGTTTCCCCTAGTGCTAG | 0.755 z-score
GACGGGATCGGTCTCGGGACGTGCTAG | -0.308 z-score
GACCGTATCGGTCTCGGGACGTGCTAG | 5.19 z-score
TCAACTTTCTTTTGCTTACTGTGCTAG | 2.85 z-score
GACGATCTCAAACTGGAGACGTGCTAG | -0.262 z-score
TTAGGTTTCGGTCTCTGTTAGTGCTAG | 10.1 z-score

Study 3
Target: Sal-like protein 4, full length isoform B (SALL4, Homo sapiens, UniProt Q9UJQ4-2, residues 1-616)
Method: universal PBM
Form: double-stranded DNA, one strand shown
Sample: in vitro
Tested at: not given
Setting: 8-mer, flanks averaged, mean of replicates
Reading: higher = stronger binding
Strand | E-score
CCGGACGG | -0.291
AAAAATTC | 0.285
CATTACAC | 0.104
CTCTCATA | 0.204
CCCTGCAC | -0.235
GAGCATTA | 0.188
AACTCGAG | -0.0971
GCTTTTCC | -0.0429
ATGAGGCC | -0.199
ATTGTTGA | 0.227
AAATTTGC | 0.22
CGGTAAAG | -0.0379
ACGGGGTA | -0.322
CGTGCCGA | -0.232
GCCGCCCC | -0.389
GTATGAAA | 0.3
ATTCAAAA | 0.261
GGGGGATA | 0.0495
GCATGCGA | 0.0784
AGACTCTG | -0.23
CGCTCGTC | -0.195
AACTAACG | 0.0542
ACGCCAGA | -0.154
GCACGTAC | -0.154
CCGGGAGC | -0.418

Study 4
Target: Ras GTPase-activating protein-binding protein 1, full length (G3BP1, Homo sapiens, UniProt Q13283)
Sequence of UniProt Q13283 (whole entry, looked up): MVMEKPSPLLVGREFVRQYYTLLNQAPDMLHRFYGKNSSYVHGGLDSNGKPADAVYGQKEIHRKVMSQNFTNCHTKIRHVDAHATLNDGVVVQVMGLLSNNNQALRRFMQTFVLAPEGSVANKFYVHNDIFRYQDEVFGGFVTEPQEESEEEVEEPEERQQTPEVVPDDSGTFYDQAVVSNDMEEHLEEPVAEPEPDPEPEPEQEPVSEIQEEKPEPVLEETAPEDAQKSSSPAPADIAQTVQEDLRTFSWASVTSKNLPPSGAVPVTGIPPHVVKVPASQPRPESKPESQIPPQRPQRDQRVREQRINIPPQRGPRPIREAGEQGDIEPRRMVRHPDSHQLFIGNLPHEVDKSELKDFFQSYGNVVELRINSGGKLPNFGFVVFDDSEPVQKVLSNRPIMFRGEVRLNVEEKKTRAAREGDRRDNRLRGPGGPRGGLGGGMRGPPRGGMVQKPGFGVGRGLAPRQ
Method: RNA Bind-n-Seq
Form: RNA
Sample: in vitro
Tested at: 200 nM
Setting: whole 134-nt RNA, ends assumed
Together with: 150 mM KCl
Reference: input library
Reading: higher = stronger binding
Shared flanks, not repeated: GGGAGUUCUACAGUCCGACGAUC … UGGAAUUCUCGGGUGUCAAGG
Strand | log2 enrichment
UCCUGUGCUACACAUCGUAUGUACCGAAUCGGGGAAAAAAAGGGGAAAGGGGAAAGGGGAAAGUAUUAUGUUACGCCGUUCGGAUCUGCA | 0.825
AGUCCUGUGCUACACAUCGUAUGUACCGAAUCAAAUUUAAAUUUUUUUAAACCCAAAAAAGUAUUAUGUUACGCCGUUCGGAUCUGCACU | -0.458
GUCCUGUGCUACACAUCGUAUGUACCGAAUCGGGGUUUUGGGUUUUGGGGUUUUGGGGAAAGUAUUAUGUUACGCCGUUCGGAUCUGCAC | 0.123
ACCAUGCAGGUGGGCAUCUUUGGGAACUGGGGCAAGGGGGGGAUAGGGAGGGGGGUAACACUUUGGGAACAGGUGGUCCCAGGUCGUUUC | 1.17
AGUCCUGUGCUACACAUCGUAUGUACCGAAUCGGGGUUUUUGGUUUUUGGUUUUUGGAAAGUAUUAUGUUACGCCGUUCGGAUCUGCACU | -1.17
AAGUCCUGUGCUACACAUCGUAUGUACCGAAUCGGGGUUUGGGUUUGGGGUUUGGGGAAAGUAUUAUGUUACGCCGUUCGGAUCUGCACU | 0.294
CCUCAAGUCCUGUGCUACACAUCGUAUGUACCGAAUCGGGAGGGUGGGAGGGAAAGUAUUAUGUUACGCCGUUCGGAUCUGCACUUCCAG | 1.81
UGGGAGGUGGAUUUUGUUUAUUUUUUUAGCUCAUUUCCUGGGGUGGGAAUUUUUUUUUAAUAUGUGUCAUGAAUAAAGUUGUUUUUGAAA | 0.161
CCUGUGCUACACAUCGUAUGUACCGAAUCGGGUUUUUUUGGUUUUUUUGGUUUUUUUGGGGAAAGUAUUAUGUUACGCCGUUCGGAUCUG | -1.21
AGUCCUGUGCUACACAUCGUAUGUACCGAAUCGGGUUUUUGGGGUUUUUGGUUUUUGGAAAGUAUUAUGUUACGCCGUUCGGAUCUGCAC | -0.74
UGGGAGGUGGAUUUUGUUUAUUUUUUUAGCUCAUUUCCAGGGGUGGGAAUUUUUUUUUAAUAUGGGUCAUGAAUAAAGUUGUUUUUGAAA | 0.105
UCCUGUGCUACACAUCGUAUGUACCGAAUCGGGGUUUGGGGUUUGGGGUUUUUUUGGGGAAAGUAUUAUGUUACGCCGUUCGGAUCUGCA | 0.731
UAACUUUAGAGGAGGAUCUGAUGGACAUGGCAGUGGACGUGGAUUUGGGGAUGGCUAUAAUGGGUAUGGAGGAGGACCUGGAGGUGGCAA | 0.425
CCUCAAGUCCUGUGCUACACAUCGUAUGUACCGAAUCGGCCGGCCGGGCCGGAAAGUAUUAUGUUACGCCGUUCGGAUCUGCACUUCCAG | -0.23

Study 5
Target: CCNE2, cyclin fold, Cln2 fusion (human)
Method: yeast growth competition, sequencing
Sample: yeast
Setting: weak parent motif
Reference: not given
Reading: higher = stronger binding
Parent: WEE2 docking peptide (human); KELRQKLNFSYCE
Variant | normalised enrichment score
KELRAKLNFSYCE [Q5A] | 0.302
KELRQKLNFAYCE [S10A] | 0.0699
KELRQKLNFSACE [Y11A] | -0.262
KELRQKANFSYCE [L7A] | -0.131
KELRQKLNFSYAE [C12A] | -0.221
KELRQALNFSYCE [K6A] | 0.238

Study 6
Target: ABI1, truncated, D143A, DHFR fusion (Arabidopsis thaliana)
Method: DHFR PCA, deep sequencing
Sample: yeast
Setting: methotrexate growth selection, single substitutions
Together with: (+)-ABA 0.032 µM
Reference: wild-type fitted maximum
Reading: higher = stronger binding
Parent: PYL1, truncated, DHFR fusion (Arabidopsis thaliana); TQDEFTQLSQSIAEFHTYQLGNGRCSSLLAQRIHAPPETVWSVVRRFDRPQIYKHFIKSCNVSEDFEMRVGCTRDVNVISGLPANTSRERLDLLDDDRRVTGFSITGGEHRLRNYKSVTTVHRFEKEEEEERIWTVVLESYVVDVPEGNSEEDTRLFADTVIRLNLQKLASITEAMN; partner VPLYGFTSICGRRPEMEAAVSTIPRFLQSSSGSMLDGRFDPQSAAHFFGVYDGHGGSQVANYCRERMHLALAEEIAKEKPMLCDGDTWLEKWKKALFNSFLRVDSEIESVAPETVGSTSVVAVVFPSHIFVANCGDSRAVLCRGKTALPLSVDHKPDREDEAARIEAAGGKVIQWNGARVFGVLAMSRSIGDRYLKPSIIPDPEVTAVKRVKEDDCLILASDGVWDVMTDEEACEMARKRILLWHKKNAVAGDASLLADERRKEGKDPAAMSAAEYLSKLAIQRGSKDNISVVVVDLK
Variant | relative binding score [%]
E64D | 38
A175E | 20.4
H110S | 43.1
D144A | 1.25
R132Q | 51.5
G81R | -6.23
N22A | 46.8
V43E | 0.69
F66P | -3.53
C60G | -1.09
P83W | 1.66
L28W | 1.99
D48W | -2.36
N77L | 25.3
E4A | 15.8
L93G | -0.138
A13M | 8.5
M176W | 3.36
L164Q | 1.82
V137R | -1.41
P146H | -2.08
R99Y | 68.5
A170Q | 10.1
D153P | -5.85
E127G | 30.1

Repeated from above (study 3):
Strand | E-score
AAAAATTC | 0.285
CATTACAC | 0.104
CTCTCATA | 0.204
CCCTGCAC | -0.235
GAGCATTA | 0.188
AACTCGAG | -0.0971
GCTTTTCC | -0.0429
ATGAGGCC | -0.199
ATTGTTGA | 0.227
AAATTTGC | 0.22
CGGTAAAG | -0.0379
ACGGGGTA | -0.322
CGTGCCGA | -0.232
GCCGCCCC | -0.389
GTATGAAA | 0.3
ATTCAAAA | 0.261
GGGGGATA | 0.0495
GCATGCGA | 0.0784
